Published values of several laboratories.
Each line is one published result; not all experiments were run side by side. Several values in a cell are separate wells, animals, samples, runs or records. ± gives the spread as reported.
DRD4: D(4) dopamine receptor (DRD4, Homo sapiens, UniProt P21917)
UniProt P21917, sequence (whole entry, looked up): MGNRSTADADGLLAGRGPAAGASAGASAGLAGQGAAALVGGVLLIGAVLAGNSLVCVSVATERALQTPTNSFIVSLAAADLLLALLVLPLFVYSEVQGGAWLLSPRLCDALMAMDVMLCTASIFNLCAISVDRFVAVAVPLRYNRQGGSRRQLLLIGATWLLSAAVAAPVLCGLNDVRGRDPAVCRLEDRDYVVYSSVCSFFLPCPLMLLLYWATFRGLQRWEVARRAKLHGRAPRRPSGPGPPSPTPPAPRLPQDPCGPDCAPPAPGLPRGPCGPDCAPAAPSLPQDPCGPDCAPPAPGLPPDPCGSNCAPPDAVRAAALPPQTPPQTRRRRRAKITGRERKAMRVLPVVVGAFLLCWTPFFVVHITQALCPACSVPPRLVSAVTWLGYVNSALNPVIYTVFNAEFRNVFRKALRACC
HDAC11: Histone deacetylase 11 (HDAC11, Homo sapiens, UniProt Q96DB2)
UniProt Q96DB2, sequence (whole entry, looked up): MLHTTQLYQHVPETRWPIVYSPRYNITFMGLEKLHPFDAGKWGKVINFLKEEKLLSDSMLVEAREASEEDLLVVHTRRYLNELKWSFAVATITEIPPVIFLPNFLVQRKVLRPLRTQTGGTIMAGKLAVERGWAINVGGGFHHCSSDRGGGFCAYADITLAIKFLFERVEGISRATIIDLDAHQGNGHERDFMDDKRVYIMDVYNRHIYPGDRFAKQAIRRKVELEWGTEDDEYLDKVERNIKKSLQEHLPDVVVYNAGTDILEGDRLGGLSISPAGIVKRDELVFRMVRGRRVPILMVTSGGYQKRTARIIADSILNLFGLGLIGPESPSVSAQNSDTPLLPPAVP
AMY2: Pancreatic alpha-amylase (AMY2, Sus scrofa, UniProt P00690)
UniProt P00690, sequence (whole entry, looked up): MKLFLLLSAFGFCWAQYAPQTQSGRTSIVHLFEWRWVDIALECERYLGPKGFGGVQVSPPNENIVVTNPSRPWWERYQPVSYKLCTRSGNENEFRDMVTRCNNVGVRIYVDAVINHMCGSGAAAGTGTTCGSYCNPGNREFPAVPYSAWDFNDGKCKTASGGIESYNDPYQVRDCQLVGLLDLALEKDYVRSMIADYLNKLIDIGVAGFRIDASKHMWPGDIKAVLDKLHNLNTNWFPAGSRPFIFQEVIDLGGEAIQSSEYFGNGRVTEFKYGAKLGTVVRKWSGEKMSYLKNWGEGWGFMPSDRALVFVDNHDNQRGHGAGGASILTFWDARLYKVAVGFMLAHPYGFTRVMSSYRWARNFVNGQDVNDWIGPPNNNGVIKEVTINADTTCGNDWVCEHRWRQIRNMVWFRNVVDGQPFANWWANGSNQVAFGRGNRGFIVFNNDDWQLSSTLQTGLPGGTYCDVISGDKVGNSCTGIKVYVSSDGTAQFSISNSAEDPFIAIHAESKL
HTR5A: 5-hydroxytryptamine receptor 5A (HTR5A, Homo sapiens, UniProt P47898)
UniProt P47898, sequence (whole entry, looked up): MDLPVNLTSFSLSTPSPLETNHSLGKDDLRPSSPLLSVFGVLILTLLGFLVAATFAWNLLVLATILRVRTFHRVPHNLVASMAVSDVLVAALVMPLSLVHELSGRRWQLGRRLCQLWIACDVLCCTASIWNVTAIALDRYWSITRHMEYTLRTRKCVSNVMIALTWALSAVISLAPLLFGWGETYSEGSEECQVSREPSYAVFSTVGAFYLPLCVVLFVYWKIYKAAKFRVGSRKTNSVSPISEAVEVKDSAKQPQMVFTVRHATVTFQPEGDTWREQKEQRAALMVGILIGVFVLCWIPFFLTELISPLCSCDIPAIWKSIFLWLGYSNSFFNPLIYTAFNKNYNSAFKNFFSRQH
UniProt Q8IWT6, sequence (whole entry, unmodified, looked up): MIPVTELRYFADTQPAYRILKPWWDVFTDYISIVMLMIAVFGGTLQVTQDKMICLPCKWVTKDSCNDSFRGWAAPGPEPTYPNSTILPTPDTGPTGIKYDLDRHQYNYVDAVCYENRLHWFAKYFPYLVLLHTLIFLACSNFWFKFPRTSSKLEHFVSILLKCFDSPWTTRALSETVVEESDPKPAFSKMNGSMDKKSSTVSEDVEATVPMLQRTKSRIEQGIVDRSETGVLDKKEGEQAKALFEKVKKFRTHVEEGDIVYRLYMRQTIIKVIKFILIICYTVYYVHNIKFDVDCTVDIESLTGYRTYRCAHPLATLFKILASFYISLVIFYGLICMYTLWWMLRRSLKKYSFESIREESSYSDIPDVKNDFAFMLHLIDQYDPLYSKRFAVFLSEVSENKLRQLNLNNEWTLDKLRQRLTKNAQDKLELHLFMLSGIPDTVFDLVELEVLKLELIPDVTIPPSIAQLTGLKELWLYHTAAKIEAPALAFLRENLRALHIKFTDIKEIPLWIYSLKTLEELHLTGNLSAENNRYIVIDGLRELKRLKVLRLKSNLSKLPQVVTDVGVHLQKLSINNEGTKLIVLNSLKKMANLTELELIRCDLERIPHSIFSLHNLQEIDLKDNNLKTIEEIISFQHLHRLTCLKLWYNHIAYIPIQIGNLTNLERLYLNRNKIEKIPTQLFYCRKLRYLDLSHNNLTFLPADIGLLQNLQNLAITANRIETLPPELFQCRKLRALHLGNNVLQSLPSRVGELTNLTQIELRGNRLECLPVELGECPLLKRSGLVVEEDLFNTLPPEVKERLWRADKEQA
UniProt Q8NER1, sequence (whole entry, looked up): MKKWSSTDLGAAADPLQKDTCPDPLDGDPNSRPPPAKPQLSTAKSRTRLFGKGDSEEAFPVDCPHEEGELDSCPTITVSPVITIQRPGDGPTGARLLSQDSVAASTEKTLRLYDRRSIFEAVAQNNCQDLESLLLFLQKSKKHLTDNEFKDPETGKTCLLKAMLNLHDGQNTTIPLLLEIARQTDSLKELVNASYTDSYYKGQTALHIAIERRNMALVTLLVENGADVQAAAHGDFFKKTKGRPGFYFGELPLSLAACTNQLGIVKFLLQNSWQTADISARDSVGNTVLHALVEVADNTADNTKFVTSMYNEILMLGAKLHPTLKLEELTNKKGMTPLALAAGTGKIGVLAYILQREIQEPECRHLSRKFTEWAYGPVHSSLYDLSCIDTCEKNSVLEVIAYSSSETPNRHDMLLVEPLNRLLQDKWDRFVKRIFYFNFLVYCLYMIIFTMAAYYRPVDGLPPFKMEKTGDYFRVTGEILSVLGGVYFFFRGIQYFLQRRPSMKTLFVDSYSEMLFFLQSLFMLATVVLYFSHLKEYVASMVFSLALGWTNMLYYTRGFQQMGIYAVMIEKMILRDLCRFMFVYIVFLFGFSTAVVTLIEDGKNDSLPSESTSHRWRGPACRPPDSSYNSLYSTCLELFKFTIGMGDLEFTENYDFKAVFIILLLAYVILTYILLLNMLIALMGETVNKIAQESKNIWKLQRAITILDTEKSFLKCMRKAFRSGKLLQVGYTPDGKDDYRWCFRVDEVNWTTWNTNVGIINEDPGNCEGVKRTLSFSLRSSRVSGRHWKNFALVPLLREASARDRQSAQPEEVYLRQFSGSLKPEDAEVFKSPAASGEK
UniProt Q8N884, sequence (whole entry, looked up): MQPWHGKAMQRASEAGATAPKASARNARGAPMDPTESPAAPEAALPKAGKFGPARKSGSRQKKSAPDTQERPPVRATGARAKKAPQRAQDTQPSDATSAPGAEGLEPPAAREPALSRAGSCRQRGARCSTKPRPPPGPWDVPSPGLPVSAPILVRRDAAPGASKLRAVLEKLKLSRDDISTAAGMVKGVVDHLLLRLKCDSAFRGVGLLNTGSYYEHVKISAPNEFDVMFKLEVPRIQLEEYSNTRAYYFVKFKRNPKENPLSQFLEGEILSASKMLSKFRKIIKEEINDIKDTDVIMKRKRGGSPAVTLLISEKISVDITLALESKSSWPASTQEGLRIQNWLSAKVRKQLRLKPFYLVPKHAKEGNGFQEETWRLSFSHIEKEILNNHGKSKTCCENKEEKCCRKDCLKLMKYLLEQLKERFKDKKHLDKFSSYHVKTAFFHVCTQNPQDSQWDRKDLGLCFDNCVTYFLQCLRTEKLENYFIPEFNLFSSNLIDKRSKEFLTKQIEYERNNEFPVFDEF
UniProt P41595, sequence (whole entry, looked up): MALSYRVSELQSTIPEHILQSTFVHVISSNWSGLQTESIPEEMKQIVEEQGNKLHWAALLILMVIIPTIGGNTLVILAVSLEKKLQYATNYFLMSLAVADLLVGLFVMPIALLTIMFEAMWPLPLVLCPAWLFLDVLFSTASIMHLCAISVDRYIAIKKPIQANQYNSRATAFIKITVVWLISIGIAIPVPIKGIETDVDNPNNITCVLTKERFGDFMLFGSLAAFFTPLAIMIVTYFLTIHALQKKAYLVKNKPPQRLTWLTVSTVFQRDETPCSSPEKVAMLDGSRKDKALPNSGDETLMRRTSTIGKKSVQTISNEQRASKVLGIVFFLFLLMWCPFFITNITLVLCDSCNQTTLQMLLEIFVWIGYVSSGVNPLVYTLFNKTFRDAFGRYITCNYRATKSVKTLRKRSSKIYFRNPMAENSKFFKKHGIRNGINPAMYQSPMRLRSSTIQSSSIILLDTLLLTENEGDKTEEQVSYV
UniProt P21913, sequence (whole entry, looked up): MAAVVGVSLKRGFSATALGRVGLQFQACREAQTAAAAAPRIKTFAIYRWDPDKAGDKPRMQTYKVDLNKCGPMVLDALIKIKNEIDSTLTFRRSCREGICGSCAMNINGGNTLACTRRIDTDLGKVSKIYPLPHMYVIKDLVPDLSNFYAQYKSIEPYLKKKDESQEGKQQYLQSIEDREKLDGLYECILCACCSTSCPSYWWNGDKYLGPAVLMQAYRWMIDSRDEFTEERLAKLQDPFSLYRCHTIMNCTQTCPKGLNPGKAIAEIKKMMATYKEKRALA
UniProt Q6PCT8, sequence (whole entry, looked up): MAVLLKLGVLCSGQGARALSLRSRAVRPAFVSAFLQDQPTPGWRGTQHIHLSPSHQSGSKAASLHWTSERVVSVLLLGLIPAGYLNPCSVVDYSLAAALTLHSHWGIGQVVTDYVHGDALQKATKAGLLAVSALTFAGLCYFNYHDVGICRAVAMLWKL

CC(C)c1noc2ncc(C(=O)c3ccccc3O)cc12 — inhibition (Potassium voltage-gated channel subfamily A member 3 (KCNA3, Homo sapiens, UniProt P22001); ion current, whole-cell patch-clamp; 10 µM, hKv1.3): 10.8%
CN(C(=O)n1cnc(-c2ccc[n+]([O-])c2)c1)C1CCCCC1 — inhibition (DRD4; 10 µM): 3.29%
Cc1cc(OS(=O)(=O)Oc2ccc(-n3ccnc3)cc2)cc(C(=O)NO)c1 — inhibition (HDAC11; 10 µM): 57%
O=C(Nc1cccc2c(=O)cc(-c3nnn[nH]3)oc12)c1ccc(OCCCCc2ccccc2)cc1 — inhibition (LRRC8A/LRRC8C (Homo sapiens, UniProt Q8IWT6+Q8TDW0, Y124F/Y126F); ion current, whole-cell patch clamp; HCT LRRC8-/- cells; 0.3 µM, +100 mV, Y124F/Y126F heteromers): -8.61% and 26.9% and 5.57% and -12.4% and -11.5% and -8.44%
O=C(CN1CCO[C@H](COc2cccnc2)C1)N1CCc2ccccc21 — inhibition (DRD4; radioligand binding; concentration not given, with: [3H]N-methylspiperone): 28.1%
COc1ccc(OS(=O)(=O)Oc2cccc(C(=O)NO)c2)cc1OC — inhibition (HDAC11; 10 µM): 45%
CC1=C(C(=O)OC(C)C)C(c2ccccc2Br)C2=C(CC(C)(C)CC2=O)N1 (stereo not shown) — inhibition (β2 adrenergic receptor; GTPγS binding; 20 µM, with: isoproterenol 10 µM): no inhibition
COc1ccc(OS(=O)(=O)Oc2cccc(C(=O)NO)c2)cc1 — inhibition (HDAC11; 5 µM): 43%
Cc1cc(-c2ccnc3[nH]cc(F)c23)cc(F)c1[C@@]1(O)[C@H](C)CN(C2CCS(=O)(=O)CC2)C[C@@H]1C — inhibition (AMPK alpha1 and alpha2; ATP probe binding, KiNativ, item: Lys1 site; HEK293T cell lysate; 10 µM): 78.4%
C=C1C(=O)O[C@@H]2C[C@@]3(C)CCC[C@H](C)C3=C[C@H]12 — inhibition (Toll-like receptor 2 (TLR2, Homo sapiens, UniProt O60603); SEAP reporter gene, antagonist; HEK-Blue hTLR2; 10 µM, with: Pam3CSK4): > 90%
CC[C@@H]1[C@H](F)C(=O)N[C@@H]1COc1nccc2cc(C(N)=O)c(OC)cc12 — inhibition (Serine/threonine-protein kinase PRP4 homolog (PRPF4B, Homo sapiens, UniProt Q13523); ATP-site probe binding, inhibitor, ActivX ATP probe profiling; THP-1 cell lysate; 0.2 mM, other probe site): 21.9%
Clc1cncc(OC[C@H]2CN(CCN3CCc4ccccc43)CCO2)c1 — inhibition (DRD4; radioligand binding; concentration not given, with: [3H]N-methylspiperone): 66.2%
CCc1oc2ccccc2c1C(=O)c1cc(Br)c(O)c(Br)c1 — inhibition (Solute carrier family 22 member 12 (SLC22A12, Homo sapiens, UniProt Q96S37, S238A); uric acid uptake; HEK293T transfected with SLC22A12 S238A; 0.5 µM, 10 min, 37 °C, mean, with: [14C]urate 200 µM): 47.6%
Cc1cc(=O)oc2ccc(-c3cc(-c4cccc(Cl)c4)nc(N)n3)c(O)c12 — inhibition (AMY2; enzyme activity, inhibitor; concentration not given): 87.5 ± 1.23%
O=C(NO)c1ccc(CN2CCCCc3ccccc32)c(F)c1 — inhibition (HTR5A; radioligand binding, radioligand displacement; 10 µM, mean of replicates): 1.6%
O=C1c2ccccc2CCCN1CCCCN1CCN(c2ccccn2)CC1 — inhibition (DRD4; radioligand binding; concentration not given, with: [3H]N-methylspiperone): 100%
NC/C(=C\F)COc1cccc(Cn2c(=S)[nH]c(=O)c3[nH]cnc32)c1 — inhibition (Sodium channel protein type 5 subunit alpha (SCN5A, Homo sapiens, UniProt Q14524); peak sodium current, inhibitor, automated patch clamp; 10 µM, pulse 9, single recording): 17.3%
O=C(NO)c1cccc(OS(=O)(=O)Oc2ccc3c(c2)OCO3)c1 — inhibition (HDAC11; 10 µM): 35%
Cc1ncccc1OC[C@@H]1CN(CCN2CCc3ccccc32)CCO1 — inhibition (HTR5A; radioligand binding; concentration not given, with: [3H]LSD): -13%
O=c1cc(-c2ccc(O)c(O)c2)oc2c(Br)c(O)c(Br)c(O)c12 — inhibition (AMY2; enzyme activity, inhibitor; 50 µM, with: CNP-G3 substrate): 98.6 ± 1.8%
COc1cc(C(=O)NS(=O)(=O)c2ccccc2C)ccc1Cc1cn(C)c2ccc(NC(=O)OC3CCCC3)cc12 — inhibition (LRRC8A/LRRC8C (Homo sapiens, UniProt Q8IWT6+Q8TDW0, L134K/L136K); ion current, whole-cell patch clamp; HCT LRRC8-/- cells; 30 µM, +100 mV, L134K/L136K heteromers): 88.2% and 99.2% and 86.9% and 77.9% and 95.5%
O=C(CN1CCO[C@H](COc2ccccc2)C1)N1CCc2ccccc21 — inhibition (HTR5A; radioligand binding; concentration not given, with: [3H]LSD): 40.5%
Cc1cc(OC(C)C)ccc1C(=O)C(C)(C)NC(=O)c1sccc1C — inhibition (succinate-cytochrome c oxidoreductase (Rattus norvegicus, UniProt P21913+Q641Z9+Q6PCT8); activity, succinate-cytochrome c oxidoreductase; Sprague-Dawley rat, mitochondrial fraction; dose not given): no inhibition
O=c1cc(-c2ccc(O)c(O)c2)oc2cc(O)cc(O)c12 — inhibition (AMY2; enzyme activity, inhibitor; 50 µM, with: CNP-G3 substrate): 97.61 ± 0.13%
COc1ccc2c(c1)C(=O)N(CCN1CCN(c3ccccc3OC)CC1)C2 — inhibition (5-hydroxytryptamine receptor 2B (HTR2B, Homo sapiens, UniProt P41595); radioligand binding; concentration not given, with: [3H]LSD): 93.9%
Oc1cc2c(cc1O)CN(C(=S)NCCc1ccc(Cl)cc1)CCC2 — inhibition (Transient receptor potential cation channel subfamily V member 1 (TRPV1, Homo sapiens, UniProt Q8NER1); HEK293T; concentration not given): 94.6% and 93.8%
Cc1nn(-c2nc3c(F)cc(F)cc3s2)c(O)c1C(c1ccccc1C(=O)O)c1c(C)nn(-c2nc3c(F)cc(F)cc3s2)c1O — inhibition (Cyclic GMP-AMP synthase, catalytic domain; with DNA (CGAS, Homo sapiens, UniProt Q8N884); cGAS phase separation, inhibitor; 5 µM): 99.6%
COc1ccccc1N1CCN(CCCCN2CCc3ccccc3C2=O)CC1 — inhibition (HTR5A; radioligand binding; concentration not given, with: [3H]LSD): 72%
Cc1cc2c(cc1N1C(=O)c3cccc4c(CCCO)ccc(c34)C1=O)n(C)c(=O)n2C (racemic) — inhibition (Protein polybromo-1, BD5 (PBRM1, Homo sapiens, UniProt Q86U86); binding, BROMOscan binding; 100 nM): 81%
c1cncc(OC[C@H]2CN(CCN3CCc4ccccc43)CCO2)c1 — inhibition (HTR5A; radioligand binding; concentration not given, with: [3H]LSD): -20.7%
C#Cc1cc(-c2cc(Nc3nc(N[C@@H](C)c4ccc(F)cn4)ncc3Cl)n[nH]2)ccc1C=O — inhibition (Vascular endothelial growth factor receptor 3 (FLT4, Homo sapiens, UniProt P35916); enzyme activity, inhibitor; 0.2 µM): 53%

A few entries again:
O=C(Nc1cccc2c(=O)cc(-c3nnn[nH]3)oc12)c1ccc(OCCCCc2ccccc2)cc1 — inhibition (LRRC8A/LRRC8C (Homo sapiens, UniProt Q8IWT6+Q8TDW0, Y124F/Y126F); ion current, whole-cell patch clamp; HCT LRRC8-/- cells; 0.3 µM, +100 mV, Y124F/Y126F heteromers): -8.61% and 26.9% and 5.57% and -12.4% and -11.5% and -8.44%
Oc1cc2c(cc1O)CN(C(=S)NCCc1ccc(Cl)cc1)CCC2 — inhibition (Transient receptor potential cation channel subfamily V member 1 (TRPV1, Homo sapiens, UniProt Q8NER1); HEK293T; concentration not given): 94.6% and 93.8%
O=c1cc(-c2ccc(O)c(O)c2)oc2c(Br)c(O)c(Br)c(O)c12 — inhibition (AMY2; enzyme activity, inhibitor; 50 µM, with: CNP-G3 substrate): 98.6 ± 1.8%
Clc1cncc(OC[C@H]2CN(CCN3CCc4ccccc43)CCO2)c1 — inhibition (DRD4; radioligand binding; concentration not given, with: [3H]N-methylspiperone): 66.2%
